Measured values of several laboratories.
Numbered parts are unrelated; each lists some results of a single study. Positions count from the first letter of the parent shown.

Study 1
Target: CCNE2, cyclin fold, Cln2 fusion (human)
Method: yeast growth competition, sequencing
Sample: yeast
Setting: strong parent motif
Relative to: not given
Direction: higher = stronger binding
Parent: E2F1 docking peptide (human); PPVKRRLDLETDH; partner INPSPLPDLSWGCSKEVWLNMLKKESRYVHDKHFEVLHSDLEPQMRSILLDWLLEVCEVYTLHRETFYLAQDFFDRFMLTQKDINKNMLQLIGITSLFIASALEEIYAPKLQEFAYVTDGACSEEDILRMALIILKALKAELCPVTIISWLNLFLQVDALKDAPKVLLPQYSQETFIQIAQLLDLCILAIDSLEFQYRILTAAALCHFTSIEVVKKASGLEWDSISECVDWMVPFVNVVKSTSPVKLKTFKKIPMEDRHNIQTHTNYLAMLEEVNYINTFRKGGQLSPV
| Substitution | normalised enrichment score |
| --- | --- |
| R5D | 0.631 |
| P1M | 2.27 |
| D8Q | 1.53 |
| L7C | 0.184 |
| E10H | 2.53 |
| D12A | 1.7 |
| T11I | 2 |
| P2A | 1.02 |
| R5A | -0.0365 |
| D8M | 2.06 |
| H13C | 1.34 |
| P1W | 1.79 |
| E10M | 1.16 |
| V3I | 0.126 |
| D12S | 2.01 |
| P1V | 0.708 |
| D12N | 1.15 |
| D12P | 2.13 |

Study 2
Target: RING finger protein unkempt homolog, zinc fingers 1-6, GST-SBP tag (UNK, Homo sapiens, UniProt Q9C0B0, residues 30-357)
Method: RNA Bind-n-Seq
Form: RNA
Sample: in vitro
Concentration: not given
Setting: RNA with constant flanks, human and mouse sites, ends assumed
Relative to: input RNA pool
Direction: higher = stronger binding
Target sequence (chain): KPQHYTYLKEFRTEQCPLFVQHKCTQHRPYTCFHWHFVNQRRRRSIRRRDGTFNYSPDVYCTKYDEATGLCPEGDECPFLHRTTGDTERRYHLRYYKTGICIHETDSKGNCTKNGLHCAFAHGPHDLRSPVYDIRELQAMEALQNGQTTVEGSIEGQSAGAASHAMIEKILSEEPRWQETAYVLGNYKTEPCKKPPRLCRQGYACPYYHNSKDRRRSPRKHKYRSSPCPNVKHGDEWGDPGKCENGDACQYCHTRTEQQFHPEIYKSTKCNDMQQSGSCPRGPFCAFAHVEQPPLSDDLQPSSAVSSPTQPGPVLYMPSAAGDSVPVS
| Strand | bound/input enrichment [ratio] |
| --- | --- |
| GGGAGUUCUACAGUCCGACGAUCGGAUUUAGAAGCCAAGUAAAUGUCAUUGGGAAGGAGAGCUACCACCACUGAGUGCUGAACAGUAAACUCAUUUUUCAGAGUUAAAAAAUUAUUUAAAAAAACAAGAUGGGGACUCCUGGUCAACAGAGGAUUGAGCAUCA | 1.27 |
| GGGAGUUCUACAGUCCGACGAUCAAUGUGCUGCUCACAAGUUCUGACUCAAGUGUAAUUAUUCAACAAGCAGUACCUUCACCAACCUCAAGUACUGUAAUCACCCAGGCACCAUCCUCUAACAGGCCAAUUGUUCCUGUACCACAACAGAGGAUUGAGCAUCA | 0.118 |
| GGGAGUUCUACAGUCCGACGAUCCUACGUUUUUACACAGCCCCACCUGCUCCCCGGCUUGCCCUUUGCUUCGUAGACAUCCGUCGCUUUGGCCACUGGGAUCCUGGGGGUGAAUGGCAACCAGGCCGUGGACCCUGUGUCUUGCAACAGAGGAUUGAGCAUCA | 0.0759 |
| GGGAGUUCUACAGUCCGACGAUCCACACAAUGUUUUUACAAGAUUUUAGACCAUUUCUAAGUAGCAAUCCACUGGACCAAGAUAAUAGAGCCAAUGAGAGAGGUCACCAAACUCACACUGACUUUUGGGGACCAAGUCGGCCUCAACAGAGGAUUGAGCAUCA | 1.38 |
| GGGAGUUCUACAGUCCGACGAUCGCCAUCAUCCCCUAUAUCCCCACUCUCAUCACGCAGCUCACACAGAAGCUGCUGGCUGUUAGUAAGAAUCCCAGUAAACCUCAUUUCAAUCACUACAUGUUUGAAGCAAUAUGCUUGUCUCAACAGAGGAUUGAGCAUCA | 0.377 |
| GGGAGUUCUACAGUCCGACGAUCGCUGAGGGAGUCGACUUAAUUAAGGUCUUCGCAAAAACAGAAGCACAGAGAGGAGCAUAUAUAGAAUUAGCACUUCAAACUUAUCAAGAAAUAGUUACCAGUCAUUCCGCAGCAUCCUGACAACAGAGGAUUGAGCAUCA | 4.66 |
| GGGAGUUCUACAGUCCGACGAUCAUUAAUAGAUAUAGCCGUUUAUCAAAAAAAAGAGAAAAUGACAAGGUGAAGUAUGAAGUAACAGAAGAUGUGUACACAUCCAGAAAGAAACAACACCAGACCAUGAUGCAUUAUUUUUGUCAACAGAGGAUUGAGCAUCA | 1.89 |
| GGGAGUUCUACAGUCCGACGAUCAAACCAAGGAAACGGAAACGGCAGAGGCUUGUCACAGCCAGAGUGCACUAUAAAAAAGUGAAGAAGGAGGACUUAACAAAAGACACACCCAGCUCGGAGGGAGAACUGCUGAUUCACAGGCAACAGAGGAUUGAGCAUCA | 0.22 |
| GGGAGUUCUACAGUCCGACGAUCACAACGUACAUCAAUGCCUCGACGUGUACAGUCAGCUUUCAACCGACCAACCCUCCAAUUAUAUUUGACCUUCCAAACCCACAGGGUUCCUGAAGCUCUAAAUGCCCUAUUGGAAUGUGACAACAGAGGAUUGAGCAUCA | 0.187 |
| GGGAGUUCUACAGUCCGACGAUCACUCUGCUCUUCAGACCCCCUGUGUGAUUCAGAGAUGUGAACACGCAAAAUACACGCAGCAUUGCCCCUUCGAUGUUCUCAUCACAUAACGUUACCUCUAAAAGGGAAAAUCAUUGCCCCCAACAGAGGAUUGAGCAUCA | 0.152 |
| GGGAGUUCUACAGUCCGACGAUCAAGGGAGAUUAUUUCCGGUAUCUUGCUGAAGUAGCUUGUGGCGAUGAUCGAAAACAAACAAUAGAAAAUUCCCAAGGAGCCUACCAAGAGGCGUUUGAUAUAAGCAAGAAGGAGAUGCAGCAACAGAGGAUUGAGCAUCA | 0.556 |

Study 3
Target: Ras GTPase-activating protein-binding protein 1, full length (G3BP1, Homo sapiens, UniProt Q13283)
Sequence of UniProt Q13283 (whole entry, looked up): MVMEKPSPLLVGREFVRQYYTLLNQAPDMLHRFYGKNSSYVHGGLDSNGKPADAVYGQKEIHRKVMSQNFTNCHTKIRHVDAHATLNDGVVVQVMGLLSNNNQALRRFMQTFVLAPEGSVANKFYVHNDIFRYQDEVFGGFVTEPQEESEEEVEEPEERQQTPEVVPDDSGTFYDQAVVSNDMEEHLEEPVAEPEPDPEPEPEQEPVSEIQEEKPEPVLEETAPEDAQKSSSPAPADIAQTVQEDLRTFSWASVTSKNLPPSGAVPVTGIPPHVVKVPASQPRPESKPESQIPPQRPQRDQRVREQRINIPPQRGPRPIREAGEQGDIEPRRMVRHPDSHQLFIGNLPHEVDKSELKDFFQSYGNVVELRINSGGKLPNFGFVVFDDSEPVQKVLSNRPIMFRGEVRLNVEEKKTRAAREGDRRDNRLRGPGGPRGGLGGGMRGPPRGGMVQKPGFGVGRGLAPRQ
Method: RNA Bind-n-Seq
Form: RNA
Sample: in vitro
Concentration: 200 nM
Setting: whole 134-nt RNA, ends assumed
With: 150 mM LiCl
Relative to: input library
Direction: higher = stronger binding
Each molecule: 7-deaza-guanosine replaces G
| Strand | log2 enrichment |
| --- | --- |
| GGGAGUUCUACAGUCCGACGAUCUAAGAAGGAAAUUGAGAGGAGAAAAACUGGAAAAGAAAUGUUGGAUUAUAAAAGAAAACAAGAAGAAGAAUUAACAAAAAGAAUGCUGGAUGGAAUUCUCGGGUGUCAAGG | -0.96 |
| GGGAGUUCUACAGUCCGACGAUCAGUCCUGUGCUACACAUCGUAUGUACCGAAUCGGGGUUUGGGGAAAGGGGUUUGGGGAAAGUAUUAUGUUACGCCGUUCGGAUCUGCACUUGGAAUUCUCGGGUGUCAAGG | -0.84 |
| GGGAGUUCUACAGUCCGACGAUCCUGUGCUACACAUCGUAUGUACCGAAUCGGGGAAAAAGGGGAAAAAGGGGUUUUUUUGGGGAAAGUAUUAUGUUACGCCGUUCGGAUCUGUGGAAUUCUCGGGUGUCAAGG | -0.0416 |
| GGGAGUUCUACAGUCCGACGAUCGGCCCGACCUGAUCGACUUUGAUAAGCUGAAGGACUCCAAUGCCCGGCACAACCUGGAGCACGCAUUCAAUGUGGCUGAGCGCCAGCUGGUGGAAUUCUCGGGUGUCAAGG | -0.165 |
| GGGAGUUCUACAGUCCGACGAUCCAAGUCCUGUGCUACACAUCGUAUGUACCGAAUCGGGAAAGGAAAGGGAAAGGGGAAAGUAUUAUGUUACGCCGUUCGGAUCUGCACUUCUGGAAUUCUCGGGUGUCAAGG | -0.0782 |
| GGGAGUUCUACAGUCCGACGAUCGUCCUGUGCUACACAUCGUAUGUACCGAAUCGGGAAAAAAAGGGAAAAAAAGGGUGGGAAAGUAUUAUGUUACGCCGUUCGGAUCUGCACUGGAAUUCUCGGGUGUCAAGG | -1.33 |
| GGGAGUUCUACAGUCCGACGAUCAGUCCUGUGCUACACAUCGUAUGUACCGAAUCGGAAAAAAAGGAAAGGUUUUUUUGGAAAGUAUUAUGUUACGCCGUUCGGAUCUGCACUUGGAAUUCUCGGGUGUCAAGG | -2.46 |
| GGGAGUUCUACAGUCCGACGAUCCAAGUCCUGUGCUACACAUCGUAUGUACCGAAUCGGUUUUUGGAGGAAAAAAAGGAAAGUAUUAUGUUACGCCGUUCGGAUCUGCACUUCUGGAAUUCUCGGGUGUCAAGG | -0.714 |
| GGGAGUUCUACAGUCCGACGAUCUGGGAGAUGGAUUUUGUUUAUUUUUUUAGCUCAUUUCCAGGGGUGGGAAUUUUUUUUUAAUAUGUGUCAUGAAUAAAGUUGUUUUUGAAAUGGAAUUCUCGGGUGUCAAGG | -0.224 |
| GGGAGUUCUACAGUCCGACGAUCUCCUGUGCUACACAUCGUAUGUACCGAAUCGGGAAAAAAAGGGAAAAAGGGAAAAAGGGAAAGUAUUAUGUUACGCCGUUCGGAUCUGCAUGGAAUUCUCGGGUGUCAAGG | 0.355 |
| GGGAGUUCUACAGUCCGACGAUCCACAGACAACACGCACGCACACAGACACAGAGGGAAGGGGUUGGGAUGGGGACAGGGUGCACAGCAGGGCGGGGUAGGACCCCAGCCCCUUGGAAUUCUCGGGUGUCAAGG | 0.159 |

Single results of other studies
| Substance | target | test | test system | conditions | how to read | endpoint | value |
| --- | --- | --- | --- | --- | --- | --- | --- |
| PhoQ, residues 284 288 289 292 302 303 SNSSNI | PhoP, residues 12 14 15 18 19 NQFFI (Escherichia coli, UniProt P23836) | Sort-seq, measured: YFP reporter | E. coli | PhoQ-PhoP variant library, with: 10 µM Mg2+ | relative to: high Mg2+ state, higher = stronger signaling | fold induction | 9.95 |
